Results from different studies.
Every numbered part comes from another study and shows a few of its results, in no order. Substitutions count along the parent as printed.

Sample 1 — method: RNA Bind-n-Seq; molecule type: RNA; sample: in vitro; tested at: 200 nM; notes: whole 134-nt RNA, ends assumed; together with: 150 mM LiCl; reference: input library; reading: higher = stronger binding; all molecules: 7-deaza-guanosine replaces G
Target: Ras GTPase-activating protein-binding protein 1, full length (G3BP1, Homo sapiens, UniProt Q13283)
Chain of UniProt Q13283 (whole entry, looked up): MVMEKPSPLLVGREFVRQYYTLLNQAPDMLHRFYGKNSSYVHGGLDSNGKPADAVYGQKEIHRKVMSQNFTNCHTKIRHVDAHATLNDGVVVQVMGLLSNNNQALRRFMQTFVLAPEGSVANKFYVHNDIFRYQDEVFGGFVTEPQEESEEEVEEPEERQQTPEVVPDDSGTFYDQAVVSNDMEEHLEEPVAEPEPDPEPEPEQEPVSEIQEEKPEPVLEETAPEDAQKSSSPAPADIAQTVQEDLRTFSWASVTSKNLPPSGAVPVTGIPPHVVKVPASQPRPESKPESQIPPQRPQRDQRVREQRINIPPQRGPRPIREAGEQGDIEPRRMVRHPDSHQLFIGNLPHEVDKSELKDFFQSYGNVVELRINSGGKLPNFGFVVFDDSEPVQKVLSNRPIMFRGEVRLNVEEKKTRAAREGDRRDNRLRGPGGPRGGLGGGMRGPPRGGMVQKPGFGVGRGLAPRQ
Shared flanks, not repeated: GGGAGUUCUACAGUCCGACGAUC … UGGAAUUCUCGGGUGUCAAGG
| Sequence | log2 enrichment |
| --- | --- |
| UGGGAGGUGGAUUUUGUUUAUUUUUUUAGCUCAUUUCCCGGGGUGGGAAUUUUUUUUUAAUAUGUGUCAUGAAUAAAGUUGUUUUUGAAA | -0.236 |
| AAGUCCUGUGCUACACAUCGUAUGUACCGAAUCGGGAAAGGGAAAAAGGGUUUGGGAAAGUAUUAUGUUACGCCGUUCGGAUCUGCACUU | -1.84 |
| UAACUUUAGAGGAGGAUGUGAUGGAUAUGGCAGUGGACGUGGAUUUGGGGAUGGCUAUAAUGGGUAUGGAGGAGGACCUGGAGGUGGCAA | 0.00416 |
| UGGGAGGUGGAUUUUGUUUAUUUUUUUAGCUCAUUUCCAGGGGUGGGAAUUUUUUUUUAAUAUCUGUCAUGAAUAAAGUUGUUUUUGAAA | -0.243 |
| CUCAAGUCCUGUGCUACACAUCGUAUGUACCGAAUCGGAGGAAAGGAAAAAGGAAAGUAUUAUGUUACGCCGUUCGGAUCUGCACUUCCA | -0.959 |
| UGGGAGGUGGAUUUUGUUUAUUUUUUUAGCUCAUUACCAGGGGUGGGAAUUUUUUUUUAAUAUGUGUCAUGAAUAAAGUUGUUUUUGAAA | 0.315 |
| AGUCCUGUGCUACACAUCGUAUGUACCGAAUCGGGUUUUGGGUUUUGGGGUUUUGGGAAAGUAUUAUGUUACGCCGUUCGGAUCUGCACU | -0.515 |
| CCUGUGCUACACAUCGUAUGUACCGAAUCGGGGAAAAAAAGGGGAGGGGAAAAAAAGGGGAAAGUAUUAUGUUACGCCGUUCGGAUCUGC | 0.989 |
| UGGGAGGUGGAUUUUGUUUAUUUUUUUAGCUCAUUUCCAGGGGUGGGAAUUUUUUUUUAAUAUGUGUCAUGAAUAAAGUUGUUUUUGAAG | -0.367 |
| UCAAGUCCUGUGCUACACAUCGUAUGUACCGAAUCGGUUUGGUUUUUGGAAAGGAAAGUAUUAUGUUACGCCGUUCGGAUCUGCACUUCC | 0.0534 |
| UCAAGUCCUGUGCUACACAUCGUAUGUACCGAAUCGGCCGGGGCCGGGGCCGGGAAAGUAUUAUGUUACGCCGUUCGGAUCUGCACUUCC | -0.197 |

Sample 2 — method: universal PBM; molecule type: double-stranded DNA, one strand shown; sample: in vitro; tested at: 600 nM; reading: higher = stronger binding
Target: Sal-like protein 4, full length isoform A (SALL4, Homo sapiens, UniProt Q9UJQ4, residues 1-1053)
Chain of UniProt Q9UJQ4 (whole entry, looked up): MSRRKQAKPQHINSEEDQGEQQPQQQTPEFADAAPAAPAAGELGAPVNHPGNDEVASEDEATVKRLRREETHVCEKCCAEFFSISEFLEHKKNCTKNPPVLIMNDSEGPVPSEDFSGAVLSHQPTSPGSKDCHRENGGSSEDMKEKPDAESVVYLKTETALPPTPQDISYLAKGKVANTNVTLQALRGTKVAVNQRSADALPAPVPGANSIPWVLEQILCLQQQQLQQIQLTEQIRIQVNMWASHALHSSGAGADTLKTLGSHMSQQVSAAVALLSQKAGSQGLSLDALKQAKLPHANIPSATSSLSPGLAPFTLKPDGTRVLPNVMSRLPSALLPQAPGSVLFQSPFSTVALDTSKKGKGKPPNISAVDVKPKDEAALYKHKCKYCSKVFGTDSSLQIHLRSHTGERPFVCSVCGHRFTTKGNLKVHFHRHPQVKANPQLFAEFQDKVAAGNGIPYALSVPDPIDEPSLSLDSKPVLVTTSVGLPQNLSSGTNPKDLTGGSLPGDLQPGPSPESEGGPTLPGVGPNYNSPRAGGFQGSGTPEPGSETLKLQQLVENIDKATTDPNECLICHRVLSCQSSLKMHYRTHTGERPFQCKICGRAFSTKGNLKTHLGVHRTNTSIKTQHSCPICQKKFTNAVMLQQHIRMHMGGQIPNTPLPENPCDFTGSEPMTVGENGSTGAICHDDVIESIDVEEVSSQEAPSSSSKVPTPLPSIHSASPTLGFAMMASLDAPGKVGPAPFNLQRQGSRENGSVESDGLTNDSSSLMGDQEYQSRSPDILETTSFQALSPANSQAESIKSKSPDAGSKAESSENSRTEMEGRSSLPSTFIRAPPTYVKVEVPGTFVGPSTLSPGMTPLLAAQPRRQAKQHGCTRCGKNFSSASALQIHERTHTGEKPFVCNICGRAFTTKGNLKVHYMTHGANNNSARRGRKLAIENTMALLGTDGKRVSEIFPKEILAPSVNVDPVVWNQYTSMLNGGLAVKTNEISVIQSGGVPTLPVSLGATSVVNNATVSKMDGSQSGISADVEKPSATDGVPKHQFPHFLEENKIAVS
Notes: 8-mer, flanks averaged, mean of replicates
| Sequence | E-score |
| --- | --- |
| GACGAGTC | -0.188 |
| ACCCTGGC | -0.31 |
| AGCCTCAC | -0.176 |
| GCCGGAGA | -0.199 |
| ATTAAAGA | 0.318 |
| GGGAGAGA | -0.153 |
| AACTCTGA | 0.0343 |
| CTCTATCC | -0.116 |
| CCGTACAC | -0.165 |
| ACGCTGCG | -0.25 |
| GCGAGGGA | -0.149 |
| GGTTACAA | 0.23 |
| AACTATCA | 0.262 |
| AACCTGCT | -0.185 |
| GGTCTGAC | -0.22 |
| CCATACAG | -0.00065 |
| CCTTATGC | 0.14 |
| CGTCATGC | -0.17 |
| AATGACTC | 0.11 |
| CGTCACGA | -0.0209 |
| AAACTTCC | -0.093 |
| CGTTCGTA | 0.117 |
| AGCACTGG | -0.208 |
| AAAGTATG | 0.247 |
| CTTCTCCA | -0.185 |

Sample 3 — method: RNA Bind-n-Seq; molecule type: RNA; sample: in vitro; tested at: 365 nM; reference: no-protein control; reading: higher = stronger binding
Target: RNA binding protein fox-1 homolog 2, RRM domain, GST-SBP tag (RBFOX2, Homo sapiens, UniProt O43251-10, residues 100-194)
Notes: natural RNA segment, single round, ends assumed
Shared flanks, not repeated: GGGAGUUCUACAGUCCGACGAUC … UGGAAUUCUCGGGUGCCAA
Residues (chain): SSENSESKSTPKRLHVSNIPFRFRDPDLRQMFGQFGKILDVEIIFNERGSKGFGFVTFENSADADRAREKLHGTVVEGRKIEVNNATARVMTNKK
| Sequence | RBNS enrichment (R) |
| --- | --- |
| UUUGGUUAUGUUGCUGAUGUAAAUUUGUGUAAAUGGUUUCUACCCUGGAGAGUGUGUGUACCGUGUGCACUUGACUAAGGUCACAACAGAACGUUGUGUUGUAUUCUCCC | 0.653 |
| CUUUUGAAGAGGUUUCCAUUUUUAUUUAAAUUGCUAAUGGAUCAGAGAACAAUUGUUUAUUUUUUCUCUUUGGUUUUAGAUAUUAAUAAUAACAUUACUGGAAUUUUUUU | 0.887 |
| AGUCUGUAGGGAUACAUUUUUCUGUGGUUGGUUUUCUUCAGCUAAGAGUCGCUGUCAGCAGGAGCUUUCUGACCUGUUAAUUCAGGUUCUUUUUGGUUUAGGUUGGGUUU | 0.605 |
| AUGGCCAAUUAACUGAGAAUGUAAGAAAAUUGAUGCUGUACAAGGCAAAUAAAGCUGUUUAUUAACCUGAUGUCUUGUGCCUUUGCAUUCUGUGUUGCGGGGGCGUGAAA | 1.71 |
| GGACUGUGUUACUGUGCCUCCUCUGACUCAUGUGCUUUUCAGCAUAAUAGACUUAUUUAAUAUUAAUUCCUAAACUUUGCACUGUCAAUCCUCUGCUGAGUUGUGGGAGG | 0.456 |
| UUUAUGCUGAAUACAUUUGUAAAUACUCAGUUUUAUACUGUAUGUAUAUGAUUGCUACUCUAAAGGUUUGGAUAUAUGUAUUGUAAUUAGAAUUGUUGGCAUGAUGACAU | 3.92 |
| GGAAAUGUUGAAAGAUUGGACAGGGAAGAAUAGCGCUUGGUGUCCUCAUGGUCAUUCUGUCUUACCUUAGUGGCUUGACAGUACUUACUAUAGCUCCUGAGGGAAGCCAA | 0.408 |
| GAAAAAAAUAUAUAUAUUUUUGGAAAUGUAGCAUUUUAUACUUUCAAGUGUUAUAAAAAAAAAGAAAAAGAACAAAGAAACCCUUUAUUUCAUUAAAUGAUUUUUUCUGG | 1.03 |
| CUUUCAAGGUCAGCUUCCCCAUAGCUCAGGUAUCCUUUGCUCUCCUGUAUCUUCAUUUACUAUUAGUGAAGAGAUCUCUGUCCUGGAGGUUAUUCUAAACUUUCUUUGUA | 0.275 |
| CGAUGACACCACUGAAUGUUUAGGUGGGCUAGCAUUAGCGACCCUUGUUGGCCACUUUUCAGUCCUGAGAUGAGGGCCUGAGCCAGUCUUCUCUAGGGGUGGGAUGAGAC | 1.36 |
| AGGUGGGUGGGGCCCCUCUGUAAAUACGGCCCCAGGGUGGUGAGAGAGUCCCAUGCCACCCGUCCCCUUGUGACCUCCCCCCUCUGACCUCCAGCUGACCAUGCAUGCCA | 1.34 |
| AGAUCACAGAAGAUACAGUUGAGUUCGGAUCAUAGAGACCAUCUCAAGAACUUCAUUUGCUUCAAAACAAGAUAAUGAACAGAAUGCAUUUGUAAAUGCAAGAUGCAUUG | 0.289 |

Sample 4 — target: CCNB3, cyclin fold, Cln2 fusion (human); method: yeast growth competition, sequencing; sample: yeast; notes: strong parent motif; reference: not given; reading: higher = stronger binding
Starting sequence: SCAPER docking peptide (human); SNARRSLNFGGST; partner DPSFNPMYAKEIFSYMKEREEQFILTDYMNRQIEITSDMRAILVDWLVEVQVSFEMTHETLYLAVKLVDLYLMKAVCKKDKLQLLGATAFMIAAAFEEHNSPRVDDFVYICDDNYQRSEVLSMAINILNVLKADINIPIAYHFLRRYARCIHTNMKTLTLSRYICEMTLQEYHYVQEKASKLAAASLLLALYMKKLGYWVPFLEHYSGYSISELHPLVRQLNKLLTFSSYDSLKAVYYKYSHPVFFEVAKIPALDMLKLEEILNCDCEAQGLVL
| Variant | normalised enrichment score |
| --- | --- |
| RNARRSLNFGGST [S1R] | 1.35 |
| SHARRSLNFGGST [N2H] | 1.3 |
| SNARRSLNFGGSP [T13P] | 1.61 |
| SNARRILNFGGST [S6I] | 1.79 |
| SNARRSLNFGGSH [T13H] | 1.2 |
| SNARRSLNFRGST [G10R] | 0.35 |
| ANARRSLNFGGST [S1A] | 1.77 |
| SNAERSLNFGGST [R4E] | -0.115 |
| SNARRSMNFGGST [L7M] | 0.28 |
| SSARRSLNFGGST [N2S] | 1.7 |
| SNARRSLNFGEST [G11E] | 1.24 |
| SNARRSLNFQGST [G10Q] | 0.733 |
| SNARRKLNFGGST [S6K] | 2.12 |
| SNARRSLIFGGST [N8I] | 1.26 |
| SNARRFLNFGGST [S6F] | 0.872 |
| SNARRSGNFGGST [L7G] | -0.103 |
| SNARRSLNFGGRT [S12R] | 0.327 |
| SCARRSLNFGGST [N2C] | 1.33 |
| SNARRHLNFGGST [S6H] | 0.988 |
| SNARRSHNFGGST [L7H] | 0.345 |
| ENARRSLNFGGST [S1E] | 1.01 |
| SNARRSLNIGGST [F9I] | 0.266 |
| SNARMSLNFGGST [R5M] | 0.534 |
| SNARRSLHFGGST [N8H] | 1.07 |
| SQARRSLNFGGST [N2Q] | 1.32 |

Sample 5 — method: RNAcompete; molecule type: RNA; sample: in vitro; tested at: 20 nM; notes: 7-mer, probes averaged, single round; reference: mean of 7-mers; reading: higher = stronger binding
Target: PABPC1L2, full length, GST fusion (mouse, UniProt A0ABA7IW68)
Residues (chain): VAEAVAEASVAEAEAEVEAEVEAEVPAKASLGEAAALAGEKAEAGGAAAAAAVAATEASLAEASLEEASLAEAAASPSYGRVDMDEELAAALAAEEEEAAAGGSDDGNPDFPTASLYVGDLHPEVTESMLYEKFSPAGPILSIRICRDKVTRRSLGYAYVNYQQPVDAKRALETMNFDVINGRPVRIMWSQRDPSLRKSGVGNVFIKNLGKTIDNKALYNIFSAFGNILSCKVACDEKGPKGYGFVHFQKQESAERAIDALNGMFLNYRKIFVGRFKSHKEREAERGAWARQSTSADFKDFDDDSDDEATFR
| Sequence | 7-mer Z-score |
| --- | --- |
| UUAGCGA | 0.0261 |
| ACCUUAC | -0.229 |
| AUCUGGG | 0.126 |
| GCAACUU | -0.148 |
| AUGAGGC | 0.2 |
| CGCAACA | 0.00979 |
| UUUCGAA | -0.224 |
| AGACUUC | -0.228 |
| UGUUCAC | -0.487 |
| UAGCGGU | -0.179 |
| GUCCAGA | -0.0464 |
| CGGACGU | -0.0627 |
| GCCCAAA | 0.505 |
| ACCUACG | -0.155 |
| UCAAUUC | -0.237 |
| UCCUCGU | -0.434 |
| CCUCACU | -0.0681 |
| UCCGUCG | -0.335 |
| CUCACCU | -0.436 |
| UAAAUCA | 0.724 |
| UAAGUUU | -0.306 |
| AGCGCAU | -0.141 |
| AAAAAGC | 15.6 |
| UGGCUAA | 0.126 |
| AGGCUUU | -0.161 |

Repeated from above (sample 4):
| Variant | normalised enrichment score |
| --- | --- |
| SNAERSLNFGGST [R4E] | -0.115 |
| SNARRHLNFGGST [S6H] | 0.988 |
| SNARRSGNFGGST [L7G] | -0.103 |
| SNARRILNFGGST [S6I] | 1.79 |
| SNARRSLNFQGST [G10Q] | 0.733 |
| SNARRSLNFRGST [G10R] | 0.35 |
| SNARRSLHFGGST [N8H] | 1.07 |
| SSARRSLNFGGST [N2S] | 1.7 |
| SNARRKLNFGGST [S6K] | 2.12 |
| SHARRSLNFGGST [N2H] | 1.3 |
| ENARRSLNFGGST [S1E] | 1.01 |
| RNARRSLNFGGST [S1R] | 1.35 |
| SNARRSLIFGGST [N8I] | 1.26 |
| SNARMSLNFGGST [R5M] | 0.534 |
| SNARRSLNFGGSP [T13P] | 1.61 |
